# Published values pooled from the literature.
# Each numbered part is a random draw from the data of one study; scales do not carry over between parts. Positions count from the first letter of the parent shown.

# Block 1 — technique: RNA Bind-n-Seq; form: RNA; matrix: in vitro; concentration: 365 nM; relative to: no-protein control; direction: higher = stronger binding
# Target: RNA binding protein fox-1 homolog 2, RRM domain, GST-SBP tag (RBFOX2, Homo sapiens, UniProt O43251-10, residues 100-194)
# Notes: natural RNA segment, single round, ends assumed
# All sequences stand within: GGGAGUUCUACAGUCCGACGAUC … UGGAAUUCUCGGGUGCCAA
# Residues (chain): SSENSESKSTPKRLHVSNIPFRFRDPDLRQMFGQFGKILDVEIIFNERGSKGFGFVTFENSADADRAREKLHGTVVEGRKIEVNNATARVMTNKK
Oligonucleotide,RBNS enrichment (R)
UGAAGGCAAAUAUAAGCUGGGAAAAAAGUUUUGAUGAAAUUCUUGAAGUUCAUGGUGAUCAGUGCAAUUGACCUUCUCCCUCACUCCUGCCAGUUGAAAAUGGAUUUUUA,0.374
AUAAAGAAGGUAGCUCAGCGCCACUGAGAUUGUGUUCUGCAUAAUAUUUGGAAGGCUUCCAUUUCCAUUGAAAACAAAUCCAUGAGUGAGAGGGAAAGUCUAGUAUCAAU,0.794
CUCCUCCCAAAUAUGUGCUCAGUUCCAUUAGAUUCUAUCAGAAGCACAAACAUCAGCAAAACUUUGCCUCCCAAGAUAUAAAACCUAGAAACAGACCUGUGUUCCACCCU,0.863
CCGUCCUGCUCAUGUGGUAGGCUAGCAAUAUUUUGGUUAAAAUCAUGUUUGUGACUGUAACCAUUUGUAUGAAUUAUUUUAAAGAAAUAAAAAUCCCAGAAAGAGCCGGC,0.457
GCGCCCUUUGCAUGUUGCACUCUGUUCUCAUUUGGAGGUUGGACUCAGACCAGUUAGCACAGUAUUCUCUCAUCUGUGUCACUUUGUAAAACUAACUGUACUCUGUAUUU,37.3
UACCAGUGUUGUCCAGAAGAAGCAGAGACUCAGCGCGGCUGUUGUGAGGUCUGCCUCACACCACCCACCUGCACUGCUCUCGCCUAACUGUGGACGCCGGGCACUGUUGG,0.264
GCAGGGUAAGGGUGGGCACAUUUAGGCCUCUUCUCCUCACACUGGCCCUGCCAUCAGCUUUUGGGGCCUCAGCAAGGCCUCUCUUUCUCCCCGUUGGUGAUGAAAGGCCU,0.483
GAUGGGGAGAAGUGAUUUCUUUCUUGCCUUCAAUGUGACCCUGUGAAGAUUUAUUGCAUUCUCCAUUUGUUAUCUGGGGACUUGUUAAAUAGAAACUGAAACUACUCUUG,0.314
GAGCCGCCACCGGCAACUAACCUAUGACCUUCUGACCUCUGAACUCUUCACCCAAUGAUGACCUGACCAUGCCUGCCUGCUGAUCAGUUAACUGGUAAUCGCCUUUGCUU,0.501
AGAGAAGACCACACCAAGGAGGCGGCCGCUGGCCCAGGAGAGAACACGGGGAGGUUUGUUUGUGUGAAAGGAAAGUAGUCCAGGCUGUCCCUGAAACUGAGUCUGUGGAC,1.1
UCAGUUUAGAUCUCAAAUAUAGGCUGAAAUCUCUUACCAAAGUGCGUUCCAGAUAAAAAUGAGACUUAGAAGACAGACUGGUCUAAUAUGCUCACUGGUCAUCACAUUCA,0.262
CACUUAGCUAUCUGAAACUUGAGGCAUUCCAGACCUGACAUGUUUACAAUGCACCACUGAACUUUUUUAAAUUGAAUUAAUCAGAUGUAUAUUUGUACCACUUUGGGGGG,0.63

# Block 2 — technique: Sort-seq; refers to: YFP reporter; matrix: E. coli; notes: PhoQ-PhoP variant library; together with: 10 µM Mg2+; relative to: high Mg2+ state; direction: higher = stronger signaling
# Substance: PhoQ, residues 284 288 289 292 302 303 MLMVEA
target,fold induction
"PhoP, residues 12 14 15 18 19 NFFVT (Escherichia coli, UniProt P23836)",11.8
"PhoP, residues 12 14 15 18 19 TPWTL (Escherichia coli, UniProt P23836)",16.5
"PhoP, residues 12 14 15 18 19 LHHYF (Escherichia coli, UniProt P23836)",1.71

# Block 3 — target: CCNF, cyclin fold, Cln2 fusion (human); technique: yeast growth competition, sequencing; matrix: yeast; notes: strong parent motif; relative to: not given; direction: higher = stronger binding
# Starting sequence: WEE1 docking peptide (human); HKTFRKLRLFDTP
Change,normalised enrichment score
HKDFRKLRLFDTP [T3D],0.805
HKTFRKLRLLDTP [F10L],0.846
HKTFRKLRLFETP [D11E],2.22
HKTFRKLRLKDTP [F10K],1.4
HKTFRKLHLFDTP [R8H],2.88
NKTFRKLRLFDTP [H1N],2.34
HKPFRKLRLFDTP [T3P],2.04
HKTFRKLRFFDTP [L9F],5.27
HKTFRKLELFDTP [R8E],3.65
HKTFRKLRLFDQP [T12Q],0.863
HKTFRKLTLFDTP [R8T],1.99

# Block 4 — technique: protein-binding microarray; form: double-stranded DNA, one strand shown; matrix: in vitro; concentration: 0.8 µM; notes: whole 60-bp probe, no competitor; direction: higher = stronger binding; all sequences stand within: … GTCTTGATTCGCTTGACGCTGCTG
# Target: Centromere-binding protein 1, full length, N-terminal tag (CBF1, Saccharomyces cerevisiae, UniProt P17106, residues 1-351)
# Chain of UniProt P17106 (whole entry, looked up): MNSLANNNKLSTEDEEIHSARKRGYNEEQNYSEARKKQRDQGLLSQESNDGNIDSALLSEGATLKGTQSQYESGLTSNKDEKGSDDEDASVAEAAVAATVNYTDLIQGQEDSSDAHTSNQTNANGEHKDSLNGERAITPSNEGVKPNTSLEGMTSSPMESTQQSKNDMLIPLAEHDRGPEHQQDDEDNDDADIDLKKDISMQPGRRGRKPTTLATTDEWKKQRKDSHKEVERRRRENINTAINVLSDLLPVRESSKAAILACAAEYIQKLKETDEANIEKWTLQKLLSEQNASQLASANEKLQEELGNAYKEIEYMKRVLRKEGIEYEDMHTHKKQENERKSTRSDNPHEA
Oligonucleotide,fluorescence intensity
GAAGCTTTACTGAACATCAGCACCTTGAATTTCTAG,522 a.u.
GAATTTCATCGCCTTCACCCCACCCATTTGCATTAG,532 a.u.
CCTAACTACTATAGGGGTCACGTATAGCTTCGTACA,848 a.u.
CCTAACTACTATACTCACGCTGTATAGCTTCGTACA,545 a.u.
CTATTTTAACAATTTCTGATGATAAACTTCTTTTTC,524 a.u.
CTAAGAAGGGAGGCTGTCACCAGGTTCCCCTATTTC,510 a.u.
CTAGCGCGGTTCGATCACGGATATACTTTCAACTTC,543 a.u.
GAACTATTTCATCGTGCTCACGTGGTTTCATTATAG,8640 a.u.
CTAATCAGAACAGAGCACGGGAATAGTGATCTCTTC,615 a.u.
GAATATGTTTATTTGCACGTCACGTTTGTGTTATAG,2650 a.u.
CTATTAGTTTCAAGGTGACAGGTTATGAAGATATTC,579 a.u.
GAACACAGCCCACCTCACCCCACAGGAAAACAGTAG,532 a.u.
CTACCCCCTATCTCCCACATGTTGGCATCTGTGTTC,523 a.u.
CTAATATGTATTAATGGTGGTGCCTGTCAGGGCTTC,529 a.u.
GAAAAAAAAGCTCACCACGAAAAAACTGAAAAATAG,564 a.u.
GAATTCCGAGCCAGACACGTTCTTATGTTTATCTAG,547 a.u.
CTATGATGTTGTATATGCCTGATGTAATCACGATTC,544 a.u.
CTACTGTGCTAGTCCCACGTGTGAGTGCCAAGGTTC,1600 a.u.
CTATCTGTGGCTTCCCACGTTGTGTTAGCATTATTC,536 a.u.
GAAGAAAAAATACTTAACGTGTTTCGAAACTGTTAG,524 a.u.
CTATGCAACTCTCTAATGGTGATGACTTATTGATTC,545 a.u.
GAAGGTAGCCCGCGAAACGTGCGGGCCTGATGTTAG,525 a.u.
CTATGATGCATTTTGCACGAGATAATCGCTCTTTTC,661 a.u.
GAACCCTCCACGGATCACCCCATTTGGAAAAGATAG,545 a.u.
CTATGGCTCTTTAACCACGAGTGCCCACGGAGGTTC,502 a.u.

# Block 5 — technique: protein-binding microarray; form: double-stranded DNA, one strand shown; matrix: in vitro; concentration: 250 nM; notes: 60-bp whole probe; together with: salmon DNA 0.4 mg/ml; relative to: random background probes; direction: higher = stronger binding; all sequences stand within: GCCTAGCAC … GTCTTGATTCGCTTGACGCTGCTG
# Target: Interferon regulatory factor 7, full length, phosphomimetic (IRF7, Homo sapiens, UniProt Q92985, residues 1-503, S101K/S471D/S472D/S475D/S476D/S477D/S483D/S484D/S487D)
# Chain of UniProt Q92985 (whole entry, unmodified, looked up): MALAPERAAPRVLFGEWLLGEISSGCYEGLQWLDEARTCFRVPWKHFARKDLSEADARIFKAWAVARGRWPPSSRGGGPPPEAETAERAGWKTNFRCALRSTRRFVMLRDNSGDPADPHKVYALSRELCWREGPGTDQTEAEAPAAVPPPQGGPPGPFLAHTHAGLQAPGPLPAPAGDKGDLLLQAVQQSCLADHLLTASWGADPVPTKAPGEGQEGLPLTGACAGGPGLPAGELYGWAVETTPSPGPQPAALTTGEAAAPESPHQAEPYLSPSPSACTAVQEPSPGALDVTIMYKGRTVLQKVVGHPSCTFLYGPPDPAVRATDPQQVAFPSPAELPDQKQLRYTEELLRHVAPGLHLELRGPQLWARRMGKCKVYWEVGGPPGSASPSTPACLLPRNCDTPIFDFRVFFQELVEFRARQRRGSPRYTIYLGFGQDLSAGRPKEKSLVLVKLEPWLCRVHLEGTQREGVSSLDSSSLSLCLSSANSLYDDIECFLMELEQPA
Oligonucleotide,log fluorescence
AGAGTAAATTAAGTTAGAACGTGCTAG,0.111 z-score
CCGGGTTTCACCATGTTGGCGTGCTAG,1.05 z-score
GACGAACTGAGGCTGGAGACGTGCTAG,-0.682 z-score
GACGAACTGGCGTATCGAGACGTGCTA,-0.957 z-score
GAAGGTTTCGGGTTTCGGGACGTGCTA,12 z-score
GACGAACTGGGGACAGGAGACGTGCTA,-0.242 z-score
TCACACATGCATCTCCCACTGTGCTAG,-0.175 z-score
GACGGTCTCCTTTTCCTGAGGTGCTAG,1.28 z-score
GACGGTTTCCTTAGCCTGACGTGCTAG,0.943 z-score
GACGGCTTCCTTCTCCTGACGTGCTAG,-0.531 z-score
TCAATTTTGGTTTTCTCACTGTGCTAG,0.689 z-score
TACGATATCGGGACTGGAGACGTGCTA,-0.188 z-score
TTAGATTTCAGTCTCAATTAGTGCTAG,0.69 z-score
GACGATAGCGGGTATCGAGACGTGCTA,-0.371 z-score
GACGGTCTTGGTTTCGGGACGTGCTAG,3.55 z-score
GACCATCTCAGACTGGAGACGTGCTAG,0.118 z-score
GACGGTCTCGGATTCGGGACGTGCTAG,2.76 z-score
TCAATTTTTAGTTAGAAACTGTGCTAG,0.214 z-score
GACGATATCAGTATCGAGGCGTGCTAG,0.0301 z-score
GACGAACCGGGGTATCGAGACGTGCTA,-0.126 z-score
GACGGACTGCCTTTCCTGACGTGCTAG,-0.469 z-score
GACGGTATCGGTATCGGGTCGTGCTAG,2.08 z-score
GACGATCTCAGTATCGAGACGTGCTAG,0.221 z-score
GTGGCAGGCCCTCGGGCTCCGTGCTAG,-1.21 z-score
TGAGGACTGGACACTGGGTTAGTGCTA,-0.717 z-score
